Results pooled from the literature.
A part holds a random share of what one study measured. Substitutions count along the parent as printed.

Set 1 — technique: RNA Bind-n-Seq; molecule type: RNA; medium: in vitro; tested at: 200 nM; setting: whole 134-nt RNA, ends assumed; with: 150 mM LiCl; reference: input library; reading: higher = stronger binding; quantity: log2 enrichment; each molecule: 7-deaza-guanosine replaces G
Target: Fragile X messenger ribonucleoprotein 1, C-terminal low-complexity region (Fmr1, Mus musculus, UniProt P35922)
All sequences stand within: GGGAGUUCUACAGUCCGACGAUC … UGGAAUUCUCGGGUGUCAAGG
CAAGUCCUGUGCUACACAUCGUAUGUACCGAAUCGUGUGUGUGUGUGUGUGUGUGUAAAGUAUUAUGUUACGCCGUUCGGAUCUGCACUU: -0.627
CACAGACAACACGCACCCACACAGACACAGAGGGAAGGGGUUGGGAUGGGGACAGGGUGCACAGCAGGGCGGGGUAGGACCAAAGCCCCU: -0.125
ACCAUGCAGGAGGGCAUCUUUGGGAAGUGGGGCAAGGGGGGGAUAGGGAGGGGGGUAACACUUUGGGAACAGGUGGUCCCAGGUCGUUUC: 1.62
UCCUCAAGUCCUGUGCUACACAUCGUAUGUACCGAAUCGGGAGGAGGAGGGAAAGUAUUAUGUUACGCCGUUCGGAUCUGCACUUCCAGC: -2.08
GUCCUGUGCUACACAUCGUAUGUACCGAAUCGGGGUUUUUGGGGUUUUUGGGGAGGGGAAAGUAUUAUGUUACGCCGUUCGGAUCUGCAC: -0.012
AGUCCUGUGCUACACAUCGUAUGUACCGAAUCGGGGUUUGGGGUUUUUGGGGUGGGGAAAGUAUUAUGUUACGCCGUUCGGAUCUGCACU: -0.443
GUCCUGUGCUACACAUCGUAUGUACCGAAUCGUGUGUGUGUGUGUGUGUGUGUGUGUGAAAGUAUUAUGUUACGCCGUUCGGAUCUGCAC: -0.228
UUGGAAGAGACCAGUGAAAUUCGAUCUGACUUGGAGCAGUUAGACCACGAGGUUAAGGAGGCUCAGACACUGUGCGAUGAACUCUCAGUG: -0.36

Set 2 — technique: protein binding microarray; molecule type: double-stranded DNA, one strand shown; medium: in vitro; tested at: not given; reference: not given; reading: higher = stronger binding; quantity: E-score
Target: Histone acetyltransferase KAT6A, winged helix 2, GST fusion (KAT6A, Homo sapiens, UniProt Q92794, residues 85-181)
Setting: 8-mer, flanks averaged, mean of 2 arrays, mostly near background
Target sequence (chain): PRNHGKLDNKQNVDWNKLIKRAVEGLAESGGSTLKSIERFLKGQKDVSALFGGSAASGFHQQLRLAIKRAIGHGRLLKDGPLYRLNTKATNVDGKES
CAGTTGCG: 0.103
GGTAACAA: 0.0371
CTGGGTGC: 0.0893
CGAAAGGC: 0.105
GGGAGAAC: 0.0868
ATGGGGGC: -0.111
AAATAACC: -0.049
GCACCTTA: -0.0642

Set 3 — target: CCNE2, cyclin fold, Cln2 fusion (human); technique: yeast growth competition, sequencing; medium: yeast; setting: weak parent motif; reference: not given; reading: higher = stronger binding; quantity: normalised enrichment score
Starting sequence: RB1 docking peptide (human); PKPLKKLRFDIEG
K2R: 1.09
F9Q: 0.35
K6F: 0.298
I11H: 0.726
D10T: 0.49

Single results of other studies
PhoQ, residues 284 288 289 292 302 303 TGYLSA — fold induction (PhoP, residues 12 14 15 18 19 SMASL (Escherichia coli, UniProt P23836); Sort-seq, item: YFP reporter; E. coli; PhoQ-PhoP variant library, with: 10 µM Mg2+; reference: high Mg2+ state, higher = stronger signaling): 2.95

Excerpt of the above (set 1):
AGUCCUGUGCUACACAUCGUAUGUACCGAAUCGGGGUUUGGGGUUUUUGGGGUGGGGAAAGUAUUAUGUUACGCCGUUCGGAUCUGCACU: -0.443
GUCCUGUGCUACACAUCGUAUGUACCGAAUCGUGUGUGUGUGUGUGUGUGUGUGUGUGAAAGUAUUAUGUUACGCCGUUCGGAUCUGCAC: -0.228
UUGGAAGAGACCAGUGAAAUUCGAUCUGACUUGGAGCAGUUAGACCACGAGGUUAAGGAGGCUCAGACACUGUGCGAUGAACUCUCAGUG: -0.36
